{"data": "Experimental data from different studies", "organism": "Acinetobacter baumannii", "note": "Each line is one published result; not all experiments were run side by side."}
{"Molecule": "Polymyxin B", "method": "broth microdilution", "strain": "ATCC 19606", "MIC": "1 µg/mL"}
{"Molecule": "gentamicin sulfate", "strain": "ATCC 19606, susceptible", "time": "18 h", "temperature": "37 °C", "setting": "LED light 1.57 mW for 10 min", "MIC": "0.5 µM"}
{"Molecule": "colistin", "method": "broth microdilution", "strain": "ATCC 19606", "setting": "susceptible reference strain", "MIC": "< 0.125 µg/mL"}
{"Molecule": "tigecycline", "method": "broth microdilution", "strain": "ATCC 17978", "MIC": "0.63 µM"}
{"Molecule": "benzalkonium chloride", "strain": "ATCC 17498", "setting": "tested up to 1 µM", "MIC": "32 µM"}
{"Molecule": "colistin hydrochloride", "method": "broth microdilution", "strain": "ATCC 19606", "MIC": "0.06 µg/mL"}
{"Molecule": "polymyxin B", "method": "broth microdilution", "strain": "pandrug-resistant colistin-resistant clinical isolate", "medium": "Mueller-Hinton broth", "time": "24 h", "temperature": "37 °C", "MIC": "> 63 µg/mL"}
{"Molecule": "ramoplanin", "method": "broth microdilution", "strain": "ATCC 17978", "MIC": "640 µM"}
{"Molecule": "colistin", "method": "broth microdilution", "strain": "clinical isolate RKI-No_30/16", "MIC": "1 µg/mL"}
{"Molecule": "colistin", "strain": "clinical isolate 3A1", "MIC": "0.5 µg/mL"}
{"note": "Some of these lines once more:"}
{"Molecule": "colistin", "method": "broth microdilution", "strain": "clinical isolate RKI-No_30/16", "MIC": "1 µg/mL"}
